Measured values collected from several papers.
Lines come from different studies, so protocols differ. Numbers after ± are the reported error.

The hemolysis of CC[C@H](C)[C@H](NC(=O)[C@H](C)NC(=O)[C@H](CCCCN)NC(=O)[C@H](CC(C)C)NC(=O)[C@@H](N)Cc1ccccc1)C(=O)N[C@@H](CCCCN)C(=O)N[C@@H](CCCCN)C(=O)N[C@@H](Cc1ccccc1)C(=O)NCC(=O)N[C@@H](CCCCN)C(=O)N[C@@H](CCC(=O)O)C(=O)N[C@@H](Cc1ccccc1)C(=O)N[C@@H](CCCCN)C(=O)N[C@@H](CCCCN)C(=O)N[C@H](C(=O)NCC(=O)N[C@@H](C)C(=O)N[C@@H](CCCCN)C(=O)N[C@@H](CC(C)C)C(=O)N[C@@H](CCCCN)C(=O)O)[C@@H](C)CC is reported as 0.429% (human red blood cells; 4 mg/L, 1 h, mean of replicates).
For CC[C@H](C)[C@H](NC(=O)[C@H](Cc1ccc(O)cc1)NC(=O)[C@H](C)NC(=O)[C@H](CC(=O)O)NC(=O)[C@H](CC(C)C)NC(=O)[C@H](C)NC(=O)[C@H](C)NC(=O)[C@H](CCCCN)NC(=O)CNC(=O)[C@@H](NC(=O)[C@H](Cc1c[nH]cn1)NC(=O)[C@H](CCCCN)NC(=O)CNC(=O)[C@@H](NC(=O)[C@H](Cc1c[nH]cn1)NC(=O)[C@@H](NC(=O)[C@H](C)NC(=O)[C@H](CCCCN)NC(=O)[C@H](CCCCN)NC(=O)[C@@H](NC(=O)[C@H](Cc1c[nH]c2ccccc12)NC(=O)[C@H](CCCCN)NC(=O)[C@H](CCCNC(=N)N)NC(=O)[C@H](Cc1c[nH]c2ccccc12)NC(=O)CN)[C@@H](C)CC)[C@@H](C)O)C(C)C)[C@@H](C)CC)C(N)=O, “chronic toxic concentration” read 25 µM (zebrafish embryos 28 hpf, E3 medium; 24 h).
[2H]C([2H])([18F])[C@]([2H])(N)C(=O)O: “maximum muscle uptake” 1.59 ± 0.47 %ID/cc (PET; athymic nude mouse; 15 min).
CSCC[C@H](N)C(=O)N[C@@H](C)C(=O)N[C@@H](Cc1c[nH]c2ccccc12)C(=O)N[C@@H](Cc1c[nH]cn1)C(=O)N[C@@H](CC(=O)O)C(=O)N[C@@H](CC(=O)O)C(=O)N[C@@H](CCC(=O)O)C(=O)N[C@@H](CCC(=O)O)C(=O)N[C@@H](Cc1ccccc1)C(=O)N[C@@H](C)C(=O)N[C@@H](CCCNC(=N)N)C(=O)N[C@@H](CCCNC(=N)N)C(=O)N[C@@H](CCCNC(=N)N)C(=O)N[C@@H](CCCNC(=N)N)C(=O)NCCCCCC(=O)NCCCCC(NC(=O)CCCCCNC(=O)[C@H](CCCNC(=N)N)NC(=O)[C@H](CCCNC(=N)N)NC(=O)[C@H](CCCNC(=N)N)NC(=O)[C@H](CCCNC(=N)N)NC(=O)[C@H](C)NC(=O)[C@H](Cc1ccccc1)NC(=O)[C@H](CCC(=O)O)NC(=O)[C@H](CCC(=O)O)NC(=O)[C@H](CC(=O)O)NC(=O)[C@H](CC(=O)O)NC(=O)[C@H](Cc1c[nH]cn1)NC(=O)[C@H](Cc1c[nH]c2ccccc12)NC(=O)[C@H](C)NC(=O)[C@@H](N)CCSC)C(=O)NCCCCC(NC(=O)C(CCCCNC(=O)CCCCCNC(=O)[C@H](CCCNC(=N)N)NC(=O)[C@H](CCCNC(=N)N)NC(=O)[C@H](CCCNC(=N)N)NC(=O)[C@H](CCCNC(=N)N)NC(=O)[C@H](C)NC(=O)[C@H](Cc1ccccc1)NC(=O)[C@H](CCC(=O)O)NC(=O)[C@H](CCC(=O)O)NC(=O)[C@H](CC(=O)O)NC(=O)[C@H](CC(=O)O)NC(=O)[C@H](Cc1c[nH]cn1)NC(=O)[C@H](Cc1c[nH]c2ccccc12)NC(=O)[C@H](C)NC(=O)[C@@H](N)CCSC)NC(=O)CCCCCNC(=O)[C@H](CCCNC(=N)N)NC(=O)[C@H](CCCNC(=N)N)NC(=O)[C@H](CCCNC(=N)N)NC(=O)[C@H](CCCNC(=N)N)NC(=O)[C@H](C)NC(=O)[C@H](Cc1ccccc1)NC(=O)[C@H](CCC(=O)O)NC(=O)[C@H](CCC(=O)O)NC(=O)[C@H](CC(=O)O)NC(=O)[C@H](CC(=O)O)NC(=O)[C@H](Cc1c[nH]cn1)NC(=O)[C@H](Cc1c[nH]c2ccccc12)NC(=O)[C@H](C)NC(=O)[C@@H](N)CCSC)C(N)=O (stereo partly shown) — result for “mean tissue distribution”: 7.44% (C57BL/6 mouse female, liver; dose not given, 6 h; baseline: total).
CSCC[C@H](NC(=O)CNC(=O)[C@H](CCCCN)NC(=O)[C@H](CC(C)C)NC(=O)[C@@H]1CCCN1C(=O)[C@H](CO)NC(=O)[C@H](Cc1c[nH]cn1)NC(=O)[C@H](Cc1c[nH]c2ccccc12)NC(=O)[C@H](CCCNC(=N)N)NC(=O)[C@H](CC(C)C)NC(=O)[C@H](CCCNC(=N)N)NC(=O)[C@H](Cc1c[nH]c2ccccc12)NC(=O)[C@H](CS)NC(=O)CCCCCNC(=O)CN1CCN(CC(=O)O)CCN(CC(=O)O)CCN(CC(=O)O)CC1)C(=O)O [copper-64 labelled] has a tumour-to-blood ratio of 1.48 (C57BL/6J mice, B16-F10 tumour; intravenous, 1.85 MBq, 0.5 h; baseline: tumour over blood).
For CC(C)C[C@H](NC(=O)[C@@H](N)CO)C(=O)N[C@@H](Cc1c[nH]c2ccccc12)C(=O)N[C@@H](CCC(=O)O)C(=O)N[C@@H](CC(N)=O)C(=O)N[C@@H](Cc1ccccc1)C(=O)N[C@@H](CCCCN)C(=O)N[C@@H](CC(N)=O)C(=O)N[C@@H](C)C(=O)NCC(=O)N[C@@H](CCCCN)C(=O)N[C@@H](CCCCN)C(N)=O, the HC50 was over 128 µM (horse erythrocytes; 2 h, 37 °C; baseline: Triton X-100).
The Cmax of CCCCCCCCCCCCCCCC(=O)N[C@@H](CCC(=O)NCCOCCOCCC(=O)NCCOCCOCCC(=O)NCCCC[C@H](NC(=O)[C@H](CC(=O)O)NC(=O)[C@H](CC(C)C)NC(=O)[C@H](Cc1ccc(O)cc1)NC(=O)[C@H](CCCCN)NC(=O)[C@H](CO)NC(=O)[C@H](Cc1ccc(O)cc1)NC(=O)[C@H](CC(=O)O)NC(=O)[C@H](CO)NC(=O)[C@@H](NC(=O)[C@H](Cc1ccccc1)NC(=O)[C@@H](NC(=O)CNC(=O)[C@H](CCC(N)=O)NC(=O)[C@@H](CO)NC(=O)[C@@H](N)Cc1c[nH]cn1)[C@@H](C)O)[C@@H](C)O)C(=O)N[C@@H](CCCNC(=N)N)C(=O)N[C@@H](CCCNC(=N)N)C(=O)N[C@@H](C)C(=O)N[C@@H](CCC(N)=O)C(=O)N[C@@H](CC(=O)O)C(=O)N[C@@H](Cc1ccccc1)C(=O)N[C@H](C(=O)N[C@@H](CCC(N)=O)C(=O)N[C@@H](Cc1c[nH]c2ccccc12)C(=O)N[C@@H](CC(C)C)C(=O)N[C@@H](CC(C)C)C(=O)N[C@@H](CC(N)=O)C(=O)N[C@H](C(=O)NCC(=O)NCC(=O)N1CCC[C@H]1C(=O)N[C@@H](CO)C(=O)N[C@@H](CO)C(=O)NCC(=O)N[C@@H](C)C(=O)N1CCC[C@H]1C(=O)N1CCC[C@H]1C(=O)N1CCC[C@H]1C(=O)N[C@@H](CO)C(N)=O)[C@@H](C)O)C(C)C)C(=O)O is reported as 562 ng/mL (rhesus monkey, female, plasma; subcutaneous, 300 µg/kg, day 1, toxicokinetics, mean).
The health score of N=C(N)NCCC[C@H](NC(=O)[C@H](CCCNC(=N)N)NC(=O)[C@H](CCCNC(=N)N)NC(=O)[C@H](CCC(N)=O)NC(=O)[C@H](CCCNC(=N)N)NC(=O)[C@H](CCCNC(=N)N)NC(=O)[C@H](CCCCN)NC(=O)[C@H](CCCCN)NC(=O)[C@H](CCCNC(=N)N)NC(=O)CNC(=O)[C@H](Cc1ccc(O)cc1)NC(=O)[C@H](Cc1ccccc1)NC(=O)[C@H](Cc1ccccc1)NC(=O)[C@H](Cc1ccccc1)NC(=O)Cc1ccc2ccccc2c1)C(=O)O is reported as 5 (C57BL/6 mice; intraperitoneal, 5 mg/kg, 0.5 h; direction not given).
With CC[C@H](C)[C@H](NC(=O)CNC(=O)[C@H](CCSC)NC(=O)[C@H](CCC(N)=O)NC(=O)[C@H](C)NC(=O)[C@H](CCC(N)=O)NC(=O)[C@@H](NC(=O)[C@H](CC(C)C)NC(=O)[C@H](C)NC(=O)[C@H](CO)NC(=O)[C@H](CCSC)NC(=O)[C@H](CCC(=O)O)NC(=O)[C@H](CC(C)C)NC(=O)[C@H](Cc1ccc(O)cc1)NC(=O)[C@H](CO)NC(=O)[C@H](CCC(=O)O)NC(=O)[C@H](CCC(N)=O)NC(=O)[C@H](CCCNC(=N)N)NC(=O)[C@H](CCCCN)NC(=O)[C@H](CC(=O)O)NC(=O)[C@H](CC(C)C)NC(=O)[C@H](CC(N)=O)NC(=O)[C@H](Cc1ccccc1)NC(=O)[C@H](CCC(=O)O)NC(=O)[C@H](CCCCN)NC(=O)[C@@H](NC(=O)[C@H](CC(C)C)NC(=O)[C@H](CCC(=O)O)NC(=O)[C@H](CCC(=O)O)NC(=O)[C@@H](NC(=O)[C@@H](NC(=O)[C@H](CCCNC(=N)N)NC(=O)[C@H](CCCCN)NC(=O)[C@H](C)NC(=O)[C@H](Cc1ccccc1)NC(=O)[C@H](CCC(=O)O)NC(=O)[C@H](CCC(=O)O)NC(=O)[C@H](CC(C)C)NC(=O)[C@@H](N)CO)C(C)C)C(C)C)C(C)C)[C@@H](C)CC)C(=O)N[C@@H](CO)C(=O)N[C@@H](CCC(=O)O)C(=O)N[C@@H](CCCNC(=N)N)C(=O)N[C@H](C(=O)N[C@H](C(=O)N[C@@H](CCC(=O)O)C(=O)N[C@H](C(=O)N[C@H](C(=O)N[C@@H](CC(C)C)C(=O)N[C@@H](CCCNC(=N)N)C(=O)N[C@@H](Cc1c[nH]cn1)C(=O)N[C@@H](C)C(=O)N[C@@H](C)C(=O)N[C@@H](CCC(N)=O)C(=O)N[C@H](C(=O)N[C@@H](CC(C)C)C(=O)N[C@@H](CCCCN)C(=O)O)[C@@H](C)O)C(C)C)[C@@H](C)CC)[C@@H](C)CC)[C@@H](C)CC the C0 was 12200 ng/mL (male mouse, plasma; intravenous, 1 mg/kg).
CC(C)[C@H](NC(=O)[C@@H](NC(=O)[C@H](CCCNC(=N)N)NC(=O)[C@H](CCCNC(=N)N)NC(=O)[C@H](CCCNC(=N)N)NC(=O)[C@H](CCC(N)=O)NC(=O)[C@H](CCCNC(=N)N)NC(=O)[C@H](CCCNC(=N)N)NC(=O)[C@H](CCCCN)NC(=O)[C@H](CCCCN)NC(=O)[C@H](CCCNC(=N)N)NC(=O)CN)[C@@H](C)O)C(=O)N[C@H](C(=O)N[C@@H](CO)C(=O)N1CCC[C@H]1C(=O)O)[C@@H](C)O gave an organ weight of 0.166 ± 0.038 g (ICR mice, female, heart; intranasal, 10 mg/kg daily, 4 weeks).
CC(C)C[C@@H](NC(=O)[C@@H](CCCNC(=N)N)NC(=O)[C@@H](Cc1c[nH]cn1)NC(=O)[C@@H](Cc1c[nH]c2ccccc12)NC(=O)[C@@H](Cc1c[nH]cn1)NC(=O)[C@@H](Cc1ccccc1)NC(=O)[C@H](NC(=O)[C@@H](Cc1ccc(O)cc1)NC(=O)CNC(=O)CNC(=O)CCOCCOCCOCCNC(=O)CN1CCN(CC(=O)O)CCN(CC(=O)O)CC1)[C@H](C)O)C(=O)N[C@H](CC(N)=O)C(=O)N1CCC[C@@H]1C(=O)O [gallium-68 labelled] has a tissue uptake of 0.84 ± 0.17 %ID/g (C57BL/6 mice, male, pancreas; intravenous, 1.85 MBq, 60 min, added: GP12 blocking).
For CC[C@H](C)[C@H](NC(=O)[C@H](CCCCN)NC(=O)CNC(=O)[C@H](CC(C)C)NC(=O)[C@H](Cc1ccccc1)NC(=O)[C@H](CCCCN)NC(=O)[C@H](CO)NC(=O)[C@H](Cc1ccccc1)NC(=O)[C@H](Cc1c[nH]c2ccccc12)NC(=O)[C@H](CCC(N)=O)NC(=O)[C@@H](NC(=O)[C@H](Cc1ccccc1)NC(=O)CCCCCNC(=O)CN1CCN(CC(=O)O)CCN(CC(=O)O)CCN(CC(=O)O)CC1)C(C)C)C(=O)N[C@@H](CCC(=O)O)C(=O)N1CCC[C@H]1C(=O)N[C@@H](CC(=O)O)C(=O)N[C@H](C(=O)N[C@@H](CO)C(=O)N[C@@H](CCC(N)=O)C(=O)N[C@H](C(=O)N[C@@H](CCC(N)=O)C(=O)N[C@@H](CC(=O)O)C(=O)N1CCC[C@H]1C(=O)N[C@@H](CC(N)=O)C(=O)N[C@@H](CC(=O)O)C(=O)N[C@@H](CCC(N)=O)C(=O)N[C@@H](Cc1ccc(O)cc1)C(=O)N[C@@H](CCC(=O)O)C(=O)N1CCC[C@H]1C(=O)N[C@@H](Cc1ccccc1)C(=O)O)C(C)C)C(C)C [copper-64 labelled], the tissue uptake was 2.02 ± 0.3 %ID/g (GZMB-/- mice, CT26 tumour-bearing, stomach; 2 h, checkpoint inhibitor-treated).
With COc1ccc(CNc2ccc3c(c2)S(=O)(=O)C=C3)cc1 the CD8+ cells was 10.8% (flow cytometry; male C57BL/6 mice, spleen; i.p., 5 mg/kg, 8 days; baseline: CD45+ cells).
